Experimental data pooled from the literature.
Compare with care: the assays were run in different laboratories. Values joined by “and” are separate records of one study, mostly repeats; a detail may differ. ± marks the error that the study gave.

CC(C)C[C@H](NC(=O)[C@H](CCCCN)NC(=O)[C@H](CCC(N)=O)NC(=O)[C@H](Cc1c[nH]cn1)NC(=O)C[C@@H]1NC(=O)[C@H](CCCCN)NC1=O)C(=O)N[C@H](C(=O)NCCCC[C@@H]1NC(=O)[C@H](CC(=O)N[C@@H](Cc2ccccc2)C(=O)N[C@@H](Cc2ccccc2)C(=O)N[C@@H](C)C(=O)N[C@@H](CCC(=O)O)C(=O)N[C@@H](CC(=O)O)C(=O)NCCCC[C@@H]2NC(=O)[C@H](CC(N)=O)NC2=O)NC1=O)C(C)C
stability to trypsin (HPLC; tris-HCl buffer; 24 h, pH 8, 37 °C, 10 mM tris-HCl, with: trypsin 5 µM): stable

Cc1ccc(OCCN(C)C)cc1C(=O)N[C@H](C)c1cc(-c2cnn(C(C)C)c2)nc2ccccc12
viability (Vero E6; 7.812 µM): 96.6% and 90.5%

CC[C@H](C)[C@H](NC(=O)[C@H](C)NC(=O)[C@H](CCCCN)NC(=O)[C@H](CC(C)C)NC(=O)[C@@H](N)Cc1ccccc1)C(=O)N[C@@H](CCCCN)C(=O)N[C@@H](CCCCN)C(=O)N[C@@H](Cc1ccccc1)C(=O)NCC(=O)N[C@@H](CCCCN)C(=O)N[C@@H](CCC(=O)O)C(=O)N[C@@H](Cc1ccccc1)C(=O)N[C@@H](CCCCN)C(=O)N[C@@H](CCCCN)C(=O)N[C@H](C(=O)NCC(=O)N[C@@H](C)C(=O)N[C@@H](CCCCN)C(=O)N[C@@H](CC(C)C)C(=O)N[C@@H](CCCCN)C(=O)O)[C@@H](C)CC
hemolysis (human red blood cells; 64 mg/L, 1 h): 1.12%

CCn1ccc(-c2cc([C@@H](C)NC(=O)c3cc(OCCN(C)C)ccc3C)c3ccccc3n2)n1
viability (Vero E6; 125 µM): 6.17% and 0.475% and 0.316%

CN(C)CCc1c[nH]c2cccc(/N=N/c3ccccc3)c12
trans isomer at photostationary state (light irradiation; solution; with: light 530 nm): 90%

CC1(C)C(=O)N(c2ccc(C#N)c(C(F)(F)F)c2)C(=S)N1c1ccc(C(=O)O)c(F)c1
AUC(0-t) (human, male, plasma; oral, 40 mg, single dose, fasting): 10500 ± 2530 ng·h/mL

CC[C@H](C)[C@H](NC(=O)[C@H](CC(C)C)NC(=O)CNC(=O)[C@H](Cc1c[nH]cn1)NC(=O)[C@@H](NC(=O)[C@H](Cc1c[nH]c2ccccc12)NC(=O)[C@H](CCCCN)NC(=O)CNC(=O)[C@@H](NC(=O)[C@H](Cc1c[nH]cn1)NC(=O)[C@H](Cc1c[nH]cn1)NC(=O)[C@@H](NC(=O)CNC(=O)[C@H](Cc1c[nH]cn1)NC(=O)[C@H](Cc1ccccc1)NC(=O)[C@H](CC(C)C)NC(=O)[C@H](CC(C)C)NC(=O)CNC(=O)[C@H](CC(C)C)NC(=O)[C@@H](N)Cc1ccccc1)C(C)C)C(C)C)[C@@H](C)CC)C(=O)N[C@@H](Cc1c[nH]cn1)C(=O)NCC(=O)N[C@@H](Cc1c[nH]cn1)C(=O)N[C@@H](Cc1c[nH]cn1)C(N)=O
acute toxic concentration (zebrafish embryos 28 hpf, E3 medium; 1 h): 5 µM

CC(C)[C@@H]1NC(=O)CNC(=O)[C@H](CC(N)=O)NC(=O)[C@H](CCCNC(=N)N)NC(=O)[C@H](Cc2ccc(O)cc2)NC(=O)[C@H](C(C)C)NC(=O)[C@@H](NC(=O)[C@@H](NC(=O)[C@H](CC(N)=O)NC(=O)[C@H](Cc2c[nH]c3ccccc23)NC(=O)[C@H](C)NC(=O)[C@H](Cc2ccccc2)NC(=O)CNC(=O)[C@H](CCCCN)NC(=O)[C@H](Cc2ccccc2)NC(=O)[C@H](Cc2ccccc2)NC(=O)[C@H](CCCCN)NC(=O)OCC2c3ccccc3-c3ccccc32)C(C)C)CSSC[C@@H](C(=O)N[C@@H](Cc2c[nH]cn2)C(=O)N[C@@H](CCCNC(=N)N)C(=O)N[C@@H](CCCNC(=N)N)C(=O)N[C@@H](C)C(=O)N[C@@H](CC(N)=O)C(N)=O)NC(=O)[C@H](C(C)C)NC(=O)[C@H](CCCNC(=N)N)NC1=O
peptide remaining (HPLC; mouse kidney homogenate 50 mg/mL; 8.00 h, 37 °C): 43.5% and 51.3% and 47.4%

CC[C@H](C)[C@H](NC(=O)[C@H](CCCCN)NC(=O)CNC(=O)[C@H](CC(C)C)NC(=O)[C@H](Cc1ccccc1)NC(=O)[C@H](CCCCN)NC(=O)[C@H](CO)NC(=O)[C@H](Cc1ccccc1)NC(=O)[C@H](Cc1c[nH]c2ccccc12)NC(=O)[C@H](CCC(N)=O)NC(=O)[C@@H](NC(=O)[C@H](Cc1ccccc1)NC(=O)CCCCCNC(=O)CN1CCN(CC(=O)O)CCN(CC(=O)O)CCN(CC(=O)O)CC1)C(C)C)C(=O)N[C@@H](CCC(=O)O)C(=O)N1CCC[C@H]1C(=O)N[C@@H](CC(=O)O)C(=O)N[C@H](C(=O)N[C@@H](CO)C(=O)N[C@@H](CCC(N)=O)C(=O)N[C@H](C(=O)N[C@@H](CCC(N)=O)C(=O)N[C@@H](CC(=O)O)C(=O)N1CCC[C@H]1C(=O)N[C@@H](CC(N)=O)C(=O)N[C@@H](CC(=O)O)C(=O)N[C@@H](CCC(N)=O)C(=O)N[C@@H](Cc1ccc(O)cc1)C(=O)N[C@@H](CCC(=O)O)C(=O)N1CCC[C@H]1C(=O)N[C@@H](Cc1ccccc1)C(=O)O)C(C)C)C(C)C [copper-64 labelled]
tissue uptake (C57BL/6 mice, male, tumour-free, blood; 1 h): 3.07 ± 1.3 %ID/g

CCN(Cc1ccccc1)C(=O)CCc1nc(CN2CCN(C(=O)Cc3ccc(OC)c(OC)c3)CC2)no1
time to fall (rotarod test; mouse, CCI neuropathic pain model; 1 mg/kg): 1.57 ± 0.15 min

CSCC[C@H](NC(=O)[C@@H](NC(=O)[C@H](CC(C)C)NC(=O)[C@@H](NC(=O)[C@H](Cc1c[nH]cn1)NC(=O)CCCCCNC(=O)[C@H](CCCNC(=N)N)NC(=O)[C@H](CCCNC(=N)N)NC(=O)[C@H](CCCNC(=N)N)NC(=O)[C@H](CCC(N)=O)NC(=O)[C@H](CCCNC(=N)N)NC(=O)[C@H](CCCNC(=N)N)NC(=O)[C@H](CCCCN)NC(=O)[C@H](CCCCN)NC(=O)[C@H](CCCNC(=N)N)NC(=O)CNC(=O)[C@@H](N)Cc1ccc(O)cc1)C(C)C)C(C)C)C(=O)N[C@@H](CS)C(=O)N[C@@H](C)C(=O)N[C@H](C(N)=O)[C@@H](C)O
serum Calcium (C57BL/6J mice; Alzet osmotic pump, 3 mg/kg, 8 weeks): 9 mg/dL and 9.8 mg/dL and 9.2 mg/dL

CSCC[C@@H]1NC(=O)[C@H](C(C)C)NC(=O)[C@H](CCCNC(=N)N)NC(=O)CNC(=O)[C@@H]2CCCN2C(=O)[C@@H](NC(=O)CNC(=O)[C@H](CO)NC(=O)CNC(=O)[C@H](CO)NC(=S)Nc2ccc(C[C@H]3CN(CC(=O)O)CCN(CC(=O)O)CCN3CC(=O)O)cc2)CSSC[C@@H](C(N)=O)NC(=O)[C@@H]2CCCN2C(=O)CNC(=O)[C@H](CCC(=O)O)NC(=O)[C@H](CC(=O)O)NC(=O)[C@H](CC(=O)O)NC(=O)CNC(=O)[C@H](CC(C)C)NC(=O)[C@H](Cc2c[nH]cn2)NC(=O)[C@H](CC(C)C)NC(=O)CNC(=O)[C@H](Cc2c[nH]cn2)NC1=O [copper-64 labelled]
clearance half-life (dynamic PET; CD rat, myocardial infarction, infarct myocardium fibrosis; intravenous, 18.5 MBq): 25.6 ± 8 min

O=C1NC2(CC2)COc2ncc(F)cc2[C@H]2COCCN2c2ccn3ncc1c3n2
mean corpuscular haemoglobin concentration (Sprague-Dawley rat, female, blood; oral, 5 mg/kg/day, 4 weeks, end of treatment, subacute toxicity): 314 ± 5 g/L

CC(C)=CCC/C(C)=C/CCn1cc(CC(P(=O)(O)O)P(=O)(O)O)nn1
Papp (PAMPA; phosphate buffer; 5 µg/mL, 5 h, room temperature): 0.063 ± 0.007 ×10⁻⁶ cm/s

Cc1nc2cccc(OCC(C)(C)C(=O)NC(C)C)c2c(N)c1C(=O)[O-].[Na+]
revertant colonies (Salmonella typhimurium; Ames plate incorporation; TA98; 0.80 mg/plate, with: with rat liver S9): 39 ± 7 colonies/plate

Cc1cc(-c2ccc3ccccc3c2)nnc1NCCN1CCN(C)CC1
compound remaining (metabolic stability; rat, liver microsomes; 10 min): 92.7%

CS(=O)(=O)c1cc(Cl)cc(-c2cc(Cl)c(Cl)cc2Cl)c1Cl
dose fraction in permeate (ultrafiltration; cow milk whey; 20 nM nominal in whole milk): 39.3%

COc1ccc([C@@H]2CC(=O)c3c(O)cc(O[C@@H]4O[C@H](CO)[C@@H](O)[C@H](O)[C@H]4O[C@@H]4O[C@@H](C)[C@H](O)[C@@H](O)[C@H]4O)cc3O2)cc1O
cumulative urinary excretion (male Sprague-Dawley rats, obese, urine; oral, 100 mg/kg, 48 h): 71.2 ± 12.3 ng

N#[11C]c1ccc(-c2csc(NN=C3CCCC3)n2)cc1
peak radioactivity uptake (dynamic PET/CT; C57BL/6 mouse, heart; intravenous, dose not given, 1.0 min): 1.8 SUV

CCCCCCCCCCCC(=O)C(C)C(=O)N1CCC[C@H]1C(=O)NC(C)(C)C(=O)NC(C)(C)C(=O)NC(C)(C)C(=O)N[C@](C)(CC)C(=O)NCCC(=O)N[C@@H](C)C(=O)N[C@](C)(CC)C(=O)N[C@@H](C)C(=O)N[C@@H](CC(C)C)C(=O)N[C@](C)(CC)C(=O)NCCC(=O)N[C@@H](C)C(=O)N[C@](C)(CC)C(=O)NCCC(=O)N[C@@H](C)C(=O)NC(C)(C)C(=O)NC(C)(C)C(=O)NC(C)(C)C(=O)N[C@@H](C)C(=O)N[C@@H](CC(=O)O)C(=O)O (stereo partly drawn)
remaining intact peptide (LC-MS; buffer with trypsin; 40 µM, 20 min, pH 7.5, 37 °C; relative to: 0 h): 84.1% and 99.2% and 93.1%

NC(=O)[C@H](CCC(=O)O)NC(=O)[C@H](CCC(=O)O)NC(=O)[C@H](Cc1ccccc1)NC(=O)[C@H](Cc1ccccc1)NC(=O)OCC1c2ccccc2-c2ccccc21
half-life (mass spectrometry; mouse, blood; intravenous, 10 mg/kg, single dose): 38.4 min

Repeated from above:
Cc1nc2cccc(OCC(C)(C)C(=O)NC(C)C)c2c(N)c1C(=O)[O-].[Na+]
revertant colonies (Salmonella typhimurium; Ames plate incorporation; TA98; 0.80 mg/plate, with: with rat liver S9): 39 ± 7 colonies/plate

Cc1cc(-c2ccc3ccccc3c2)nnc1NCCN1CCN(C)CC1
compound remaining (metabolic stability; rat, liver microsomes; 10 min): 92.7%
